Published values gathered from unrelated publications.
Compare with care: the assays were run in different laboratories. “And” joins repeats or separate records; there may be more than shown. Numbers after ± are the reported error.

Structure (SMILES) | test | test system | setting | how to read | measurement | value
CO[C@H]1C[C@@H]2CC[C@@H](C)[C@@](O)(O2)C(=O)C(=O)N2CCCC[C@H]2C(=O)O[C@H]([C@H](C)C[C@@H]2CC[C@@H](OC(=O)NCCOCCOCCOCCOCCOCCOCCOCCOCCC(=O)N3CCc4cc(Cn5nc(-c6ccc7oc(N)nc7c6)c6c(N)ncnc65)ccc4C3)[C@H](OC)C2)C[C@@H](O)[C@H](C)/C=C(\C)[C@@H](O)[C@@H](OC)C(=O)[C@H](C)C[C@H](C)/C=C/C=C/C=C/1C |  | human patients, plasma | intravenous, 1.6 mg, cycle 1 day 15, weekly dosing |  | Tmax | 60 min
CC(C)NCC(O)COc1cccc2ccccc12 (centres unmarked) |  | male Hartley guinea pigs, anaesthetized | intravenous, 3 mg/kg group, baseline before infusion |  | heart rate | 217 ± 0.4 beats/min
CCc1cc(C(=O)NC)c2nccc(N3CCc4c(cc(Cn5ccnc5)cc4-c4cn(C)nc4C(F)(F)F)C3=O)c2c1 |  | Sprague Dawley rats | oral, 50 mg/kg once daily, 7 days |  | serum TBIL level | 2.4 ± 0.37 µmol/L
CCOc1c([C@H](C)n2nc(C)c3c(N)ncnc32)cc(Cl)c(F)c1[C@@H]1CNC(=O)C1 |  | patients, monotherapy | oral, 5 mg once daily, cycle 1 day 1 |  | AUC(0-last) | 2.11 µM·h
O=C(Nc1nc2cccc(-c3ccc(CN4CCS(=O)(=O)CC4)cc3)n2n1)C1CC1 | item: infections and infestations | human rheumatoid arthritis patients | oral, 150 mg once daily, 4 weeks, regardless of relatedness |  | treatment-emergent adverse events | 0%
O=C(NCc1ccc(CNCc2ccccc2)cc1)c1csc2nc[nH]c(=O)c12 | haemolysis | human red blood cells | 1 h, 37 °C |  | EC50 | > 100 µM
CC[C@H](C)[C@H](NC(=O)[C@H](Cc1ccccc1)NC(=O)[C@H](CCC(=O)O)NC(=O)[C@H](CCCCNC(=O)COCCOCCNC(=O)COCCOCCNC(=O)CC[C@H](NC(=O)CCCCCCCCCCCCCCCCC(=O)O)C(=O)O)NC(=O)[C@H](C)NC(=O)[C@H](C)NC(=O)[C@H](CCC(N)=O)NC(=O)CNC(=O)[C@H](CCC(=O)O)NC(=O)[C@H](CC(C)C)NC(=O)[C@H](Cc1ccc(O)cc1)NC(=O)[C@H](CO)NC(=O)[C@H](CO)NC(=O)[C@@H](NC(=O)[C@H](CC(=O)O)NC(=O)[C@H](CO)NC(=O)[C@@H](NC(=O)[C@H](Cc1ccccc1)NC(=O)[C@@H](NC(=O)CNC(=O)[C@H](CCC(=O)O)NC(=O)C(C)(C)NC(=O)[C@@H](N)Cc1cnc[nH]1)[C@@H](C)O)[C@@H](C)O)C(C)C)C(=O)N[C@@H](C)C(=O)N[C@@H](Cc1c[nH]c2ccccc12)C(=O)N[C@@H](CC(C)C)C(=O)N[C@H](C(=O)N[C@@H](CCCNC(=N)N)C(=O)NCC(=O)N[C@@H](CCCNC(=N)N)C(=O)NCC(=O)O)C(C)C | 12-lead Holter ECG | healthy humans | subcutaneous, 1.5 mg once weekly, 26 h, steady state | reference: placebo | QT change from baseline | -22.5 ms
CC(=O)N(C)[C@H]1CCN(C(=O)c2cnc3c(c2)C[C@](C)(c2ccc(F)cc2)N3)C1 |  | healthy male subjects, multiple rising dose | oral, 30 mg once daily |  | adverse events of special interest | 12.5%
OC[C@H]1O[C@@H](c2ccc(Cl)c(Cc3ccc(O[C@H]4CCOC4)cc3)c2)[C@H](O)[C@@H](O)[C@@H]1O |  | human, plasma | oral, 25 mg, compound alone |  | AUC(tau) at steady state | 2910 ± 599 ng·h/mL
CN(C(=O)n1cnc(-c2cccnc2)c1)C1CCCCC1 |  | Wistar rat, pons | oral, 10 mg/kg, 4 h, single dose |  | tissue concentration | 38.8 ± 5.5 ng/g
O=C1NCCc2nc(OCc3cccc(F)c3)ccc21 | modified Irwin test | Sprague-Dawley rat, male | oral, 100 mg/kg, 4 h | higher = stronger effect | leg weakness score | 0.2
C[C@@H](Nc1cc(F)cc(F)c1)c1cc(C(=O)N(C)C)cc2c(=O)cc(N3CCOCC3)oc12 | item: drug-induced liver injury | patients with advanced solid tumours | oral, dose not given, dose finding phase I |  | treatment-related serious adverse events | 0%
COc1ncc(-c2nc3c(n2C(C)C)[C@H](c2ccc(Cl)cc2)N(c2cc(Cl)cn(C)c2=O)C3=O)c(OC)n1 | LC-MS/MS, noncompartmental | human, plasma | oral, 200 mg, C2D1, high-dose, geometric mean |  | Cmax | 1420 ng/mL
C[C@@H](N)C1CCN(S(=O)(=O)c2cccc3cnccc23)CC1 | item: Bradycardia | healthy volunteers | 250 mg, fasted |  | TEAE incidence | 0%
CNC(=O)c1ccc(-c2cnc3ncc(Cc4ccc5ncccc5c4)n3n2)cc1F | item: Dizziness | gastric cancer patients | oral, 600 mg twice daily, expansion cohort, grade 3-4 |  | patients with adverse event | 0%
C=CC(=O)N(C)CCOc1c(N)ncnc1-c1cc(F)cc(NC(=O)c2ccc(C3CC3)cc2F)c1C |  | human | oral, 1.5 mg single dose |  | Cmax | 1.26 ng/mL
COc1ccc(C2CC(=O)c3c(O)cc(O)cc3O2)cc1O[C@@H]1O[C@H](C(=O)O)[C@@H](O)[C@H](O)[C@H]1O (some centres unmarked) |  | human CSF | concentration not given, mean |  | CSF concentration | not detected
CC(C)(C(=O)N1CCOc2c(C#N)cncc2C1)C(F)F | item: blood creatine phosphokinase increased | healthy humans, both sexes | oral, 20 mg single dose |  | subjects with TEAE | 0%

Structure (SMILES) | test | test system | setting | how to read | measurement | value
C[C@@H]1CN(c2c(F)c(N)c3c(=O)c(C(=O)O)cn(C4CC4)c3c2F)C[C@H](C)N1 |  | male Hartley guinea pigs, anaesthetized | intravenous, 3 mg/kg over 10 min, after infusion |  | heart rate | 218 ± 0.3 beats/min
COc1cc2nccc(Oc3ccc(NC(=O)c4cc5c(n(-c6ccccc6)c4=O)CCCC5=O)nc3)c2cc1OC |  | patients with relapsed/refractory AML | oral, 3 mg once daily |  | TEAEs leading to discontinuation | 10%
Cn1cc(Nc2nccc(-c3ccc4c(c3)CN(C3COC3)CC[C@H]4NC(=O)c3cn(C(C)(C)C)nn3)n2)cn1 |  | human, whole blood | 50 mg twice daily, day 7 | reference: pre-dose baseline | non-switched memory B cell change | 52.2%
CCc1c(-c2ccccc2)c(-c2ccccc2)nn1-c1ccccc1-c1cccc(OCC(=O)O)c1 |  | Sprague-Dawley rat | intravenous |  | MRT(0-t) | 39.5 min and 50.7 min and 39.2 min
C=CCn1c(=O)c2cnc(Nc3ccc(N4CCN(C)CC4)cc3)nc2n1-c1cccc(C(C)(C)O)n1 |  | human, plasma | oral, 200 mg once daily, -5-day lead-in, monotherapy lead-in |  | Tmax | 120 min
C=CC(=O)Nc1cc(Nc2nccc(-c3cn(C)c4ccccc34)n2)c(OC)cc1N(C)CCN(C)C | storage stability | human plasma | 5 h, on ice, high QC level |  | recovery | 90.3%
O=C1CC[C@H](N2Cc3cc(N4CCN(CC5CCN(c6ccc([C@@H]7c8ccc(O)cc8CC[C@@H]7c7ccccc7)cc6)CC5)CC4)ccc3C2=O)C(=O)N1 | rapid equilibrium dialysis | human plasma | 2.5 µM, 6 h |  | recovery | 100%
CCCC(CCC)C(=O)Oc1cccc(C(O)CCN)c1.O=CO (centres unmarked) |  | Abca4-/-Rdh8-/- mice, photic damage | intraperitoneal, 10 mg/kg, 7 days, flash intensity 30 |  | photopic S-cone ERG b-wave | 50.1 µV and 52.1 µV and 60.8 µV and 59 µV and 47.4 µV and 48.5 µV and 54.6 µV and 51.9 µV
Cc1ccc(Sc2ccccc2N2CCNCC2)c(C)c1 | item: blood in urine | healthy adult women | oral, 5 mg daily, 12 days |  | participants with TEAE | 0%
OC[C@H]1O[C@@H](c2ccc(F)c(Cc3cc4ccccc4s3)c2)[C@H](O)[C@@H](O)[C@@H]1O |  | Japanese patients, type 1 diabetes | oral, 100 mg/day, onset day 11 | reference: patients | hypoglycaemia-related adverse event | 4%
COc1cc(Nc2ncc3c(n2)-c2ccc(Cl)cc2C(c2c(F)cccc2OC)=NC3)ccc1C(=O)O |  | patients | oral, dose not given, grade 1, any attribution, together with: pembrolizumab |  | decreased neutrophil count incidence | 25%
O=C(O)C=Cc1ccc(OS(=O)(=O)O)c(O)c1 |  | human CSF | concentration not given, mean |  | CSF concentration | not detected
CC(C)n1c(Nc2cccnc2)nc2cnc(Nc3ccc(N4CCN(C)CC4)cc3)nc21 |  | healthy male humans | oral, dose not given, drug interaction study, all arms |  | incidence of hypertriglyceridemia TEAE | 11.9%
CC(C(=O)NCC(=O)NCC(CNC(=O)CNC(=O)C(C)N1CCN(CC(=O)[O-])CCN(CC(=O)[O-])CCN(CC(=O)[O-])CC1)(CNC(=O)CNC(=O)C(C)N1CCN(CC(=O)[O-])CCN(CC(=O)[O-])CCN(CC(=O)[O-])CC1)CNC(=O)CNC(=O)C(C)N1CCN(CC(=O)[O-])CCN(CC(=O)[O-])CCN(CC(=O)[O-])CC1)N1CCN(CC(=O)[O-])CCN(CC(=O)[O-])CCN(CC(=O)[O-])CC1.[Gd+3].[Gd+3].[Gd+3].[Gd+3] (centres unmarked) |  | cynomolgus monkey, cerebellum | dose not given, day 5 |  | lanthanide tissue concentration | 0.031 ± 0.008 nmol/g
C=CCN1CC(=O)N2[C@@H](Cc3ccc(O)cc3F)C(=O)N(Cc3cccc(N4CC(N5CCN(CC)CC5)C4)n3)C[C@@H]2N1C(=O)NCc1ccccc1 | item: Nausea | advanced solid tumour patients | oral, 100 mg twice daily, expansion part, any grade |  | treatment-related adverse events | 77.8%
COc1ccc(C=CC(=O)O)cc1O[C@@H]1O[C@H](C(=O)O)[C@@H](O)[C@H](O)[C@H]1O |  | human CSF | concentration not given, mean |  | CSF concentration | not detected
O=C(O)CCC(=O)O.[2H]C([2H])([2H])Oc1cc(C)c2[nH]ccc2c1CN1CC[C@@H](C2CC2)C[C@H]1c1ccc(C(=O)O)cc1 |  | human, plasma | 200 mg once daily, day 1, multiple ascending dose, geometric mean |  | AUC(0-tau) | 35000 ng·h/mL
